Experimental data collected from several papers.
Protocols differ between the studies behind these lines. ± gives the spread as reported.
ALB: Albumin (ALB, Homo sapiens, UniProt P02768)
SLC22A2: Solute carrier family 22 member 2 (SLC22A2, Homo sapiens, UniProt O15244)
Chain of UniProt O15244 (whole entry, looked up): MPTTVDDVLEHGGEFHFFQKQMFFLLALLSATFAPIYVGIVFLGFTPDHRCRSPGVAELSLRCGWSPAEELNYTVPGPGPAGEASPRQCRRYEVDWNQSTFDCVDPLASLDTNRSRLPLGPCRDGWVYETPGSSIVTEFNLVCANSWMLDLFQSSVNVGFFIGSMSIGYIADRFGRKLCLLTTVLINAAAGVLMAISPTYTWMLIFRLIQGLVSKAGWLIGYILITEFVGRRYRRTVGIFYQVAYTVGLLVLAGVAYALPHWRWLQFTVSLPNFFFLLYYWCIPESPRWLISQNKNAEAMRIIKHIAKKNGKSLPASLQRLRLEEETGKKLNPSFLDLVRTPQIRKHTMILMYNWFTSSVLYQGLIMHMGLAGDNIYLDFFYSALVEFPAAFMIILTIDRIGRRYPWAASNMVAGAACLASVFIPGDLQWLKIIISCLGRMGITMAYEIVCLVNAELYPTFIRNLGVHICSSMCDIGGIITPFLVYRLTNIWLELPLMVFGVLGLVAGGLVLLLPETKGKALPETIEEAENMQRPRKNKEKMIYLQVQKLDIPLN
NR1I2: Nuclear receptor subfamily 1 group I member 2 (NR1I2, Homo sapiens, UniProt O75469)
Chain of UniProt O75469 (whole entry, looked up): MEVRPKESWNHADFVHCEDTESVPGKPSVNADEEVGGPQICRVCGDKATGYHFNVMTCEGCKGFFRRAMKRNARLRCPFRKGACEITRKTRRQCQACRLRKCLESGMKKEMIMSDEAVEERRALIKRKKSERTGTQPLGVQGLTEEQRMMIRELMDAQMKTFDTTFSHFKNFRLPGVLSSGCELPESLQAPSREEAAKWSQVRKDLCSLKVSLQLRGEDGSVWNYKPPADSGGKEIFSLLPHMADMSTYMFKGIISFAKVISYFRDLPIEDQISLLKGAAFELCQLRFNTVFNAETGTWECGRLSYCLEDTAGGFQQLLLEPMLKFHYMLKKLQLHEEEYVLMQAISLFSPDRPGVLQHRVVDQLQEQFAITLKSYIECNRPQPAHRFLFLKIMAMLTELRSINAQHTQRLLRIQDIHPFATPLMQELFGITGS
Chain of UniProt P08183 (whole entry, looked up): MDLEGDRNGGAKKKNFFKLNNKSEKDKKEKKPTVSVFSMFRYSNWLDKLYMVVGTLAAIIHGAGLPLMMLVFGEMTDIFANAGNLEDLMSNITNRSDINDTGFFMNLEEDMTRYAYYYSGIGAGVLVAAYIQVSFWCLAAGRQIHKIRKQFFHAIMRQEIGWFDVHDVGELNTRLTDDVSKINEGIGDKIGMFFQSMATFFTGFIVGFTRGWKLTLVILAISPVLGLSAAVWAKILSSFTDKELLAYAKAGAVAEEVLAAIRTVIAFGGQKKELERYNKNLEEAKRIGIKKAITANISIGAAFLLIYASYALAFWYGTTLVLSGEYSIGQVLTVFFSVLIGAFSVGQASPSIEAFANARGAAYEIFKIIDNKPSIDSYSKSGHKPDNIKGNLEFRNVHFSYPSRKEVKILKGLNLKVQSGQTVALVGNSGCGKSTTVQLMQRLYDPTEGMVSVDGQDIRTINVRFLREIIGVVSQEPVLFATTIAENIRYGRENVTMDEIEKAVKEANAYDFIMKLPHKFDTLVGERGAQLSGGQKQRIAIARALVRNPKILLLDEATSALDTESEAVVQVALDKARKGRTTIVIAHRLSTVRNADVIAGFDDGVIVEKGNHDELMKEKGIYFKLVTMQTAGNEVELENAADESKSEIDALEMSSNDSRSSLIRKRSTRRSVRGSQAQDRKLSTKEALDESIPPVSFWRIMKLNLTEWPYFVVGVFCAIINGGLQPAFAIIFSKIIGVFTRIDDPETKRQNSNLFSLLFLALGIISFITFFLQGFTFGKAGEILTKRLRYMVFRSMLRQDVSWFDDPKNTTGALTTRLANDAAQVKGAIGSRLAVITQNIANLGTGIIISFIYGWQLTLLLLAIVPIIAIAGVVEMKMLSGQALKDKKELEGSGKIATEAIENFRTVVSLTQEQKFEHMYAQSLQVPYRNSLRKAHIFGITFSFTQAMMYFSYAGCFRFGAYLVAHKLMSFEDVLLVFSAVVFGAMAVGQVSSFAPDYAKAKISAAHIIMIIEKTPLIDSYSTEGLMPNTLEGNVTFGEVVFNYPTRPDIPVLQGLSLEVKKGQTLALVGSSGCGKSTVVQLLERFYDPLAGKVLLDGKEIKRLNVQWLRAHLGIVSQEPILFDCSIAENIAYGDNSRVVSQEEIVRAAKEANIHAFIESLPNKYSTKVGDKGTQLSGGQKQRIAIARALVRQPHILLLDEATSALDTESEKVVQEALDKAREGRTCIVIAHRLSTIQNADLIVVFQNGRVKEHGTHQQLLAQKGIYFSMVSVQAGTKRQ
Chain of UniProt Q59SU1 (whole entry, looked up): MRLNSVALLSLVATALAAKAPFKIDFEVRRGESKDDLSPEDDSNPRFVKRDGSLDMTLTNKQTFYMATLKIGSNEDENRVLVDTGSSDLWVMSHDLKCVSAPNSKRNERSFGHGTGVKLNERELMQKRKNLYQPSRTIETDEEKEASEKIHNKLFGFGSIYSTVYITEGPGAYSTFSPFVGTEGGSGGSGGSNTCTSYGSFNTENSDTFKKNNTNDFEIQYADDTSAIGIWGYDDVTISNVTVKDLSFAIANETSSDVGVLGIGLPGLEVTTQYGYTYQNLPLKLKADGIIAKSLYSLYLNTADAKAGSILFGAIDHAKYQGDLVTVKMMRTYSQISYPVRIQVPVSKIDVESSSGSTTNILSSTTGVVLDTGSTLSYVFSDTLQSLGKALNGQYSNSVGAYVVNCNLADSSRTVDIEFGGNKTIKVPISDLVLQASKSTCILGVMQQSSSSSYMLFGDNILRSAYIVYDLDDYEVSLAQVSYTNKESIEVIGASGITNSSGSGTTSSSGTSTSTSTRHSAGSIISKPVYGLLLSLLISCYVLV
Chain of UniProt Q9NSA0 (whole entry, looked up): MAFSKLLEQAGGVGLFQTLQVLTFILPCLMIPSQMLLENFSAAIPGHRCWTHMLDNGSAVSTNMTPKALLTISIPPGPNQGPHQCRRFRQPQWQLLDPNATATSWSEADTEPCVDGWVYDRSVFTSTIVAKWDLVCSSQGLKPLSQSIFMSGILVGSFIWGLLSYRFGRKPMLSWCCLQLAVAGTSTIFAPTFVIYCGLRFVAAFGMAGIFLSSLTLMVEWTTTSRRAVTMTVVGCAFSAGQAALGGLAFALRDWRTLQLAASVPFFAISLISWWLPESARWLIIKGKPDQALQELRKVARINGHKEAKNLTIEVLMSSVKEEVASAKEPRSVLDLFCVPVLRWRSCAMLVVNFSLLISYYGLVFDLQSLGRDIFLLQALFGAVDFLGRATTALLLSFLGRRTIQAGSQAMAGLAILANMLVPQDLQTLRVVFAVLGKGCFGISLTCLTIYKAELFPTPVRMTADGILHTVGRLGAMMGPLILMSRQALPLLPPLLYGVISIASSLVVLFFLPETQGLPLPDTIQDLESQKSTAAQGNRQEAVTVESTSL
Chain of UniProt P11234 (whole entry, looked up): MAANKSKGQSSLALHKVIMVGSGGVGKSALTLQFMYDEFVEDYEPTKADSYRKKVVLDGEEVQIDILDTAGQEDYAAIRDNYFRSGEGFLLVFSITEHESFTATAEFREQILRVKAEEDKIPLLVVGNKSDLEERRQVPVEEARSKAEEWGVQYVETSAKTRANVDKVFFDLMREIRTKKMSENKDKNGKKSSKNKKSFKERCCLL

C[C@@H](c1ccc2nccn2c1)n1nnc2ncc(-c3cnn(C)c3)nc21  IC50 (CYP3A4/5 (human); enzyme activity, inhibitor; pooled human liver microsomes; pH 7.4, added: midazolam substrate): 50 µM
COc1cc(-c2[o+]c3cc(O)cc(O)c3cc2O[C@@H]2O[C@H](CO)[C@@H](O)[C@H](O)[C@H]2O)cc(OC)c1O  Kd (ALB; binding, visible absorption spectroscopy; pH 7, added: HSA 200 µM): 50.8 ± 1.96 µM
CC[C@H]1OC(=O)[C@H](C)[C@@H](O[C@H]2C[C@@](C)(OC)[C@@H](O)[C@H](C)O2)[C@H](C)[C@@H](O[C@@H]2O[C@H](C)C[C@H](N(C)C)[C@H]2O)[C@](C)(O)C[C@@H](C)CN(C)[C@H](C)[C@@H](O)[C@]1(C)O  inhibition (SLC22A2; transport, inhibitor; 50 µM, 10 (unit not given), added: metformin): -25.5%
O=C1NC2(CCC2)C(=O)N1c1ccc(F)c(C(F)(F)F)c1  unbound fraction (ALB): 0.329
CCN(CCO)CCCC(C)Nc1ccnc2cc(Cl)ccc12 (centres unmarked)  inhibition (SLC22A2; transport, inhibitor; transiently transfected cells; 100 µM, 10 (unit not given), added: metformin): 30.3%
CC[C@H](C)[C@H](NC(=O)[C@H](CCCCN)NC(=O)[C@H](CCC(=O)O)NC(=O)[C@H](CCCCN)NC(=O)[C@H](CO)NC(=O)[C@H](CCCCN)NC(=O)[C@H](CCCNC(=N)N)NC(=O)[C@H](Cc1ccccc1)NC(=O)[C@H](Cc1ccccc1)NC(=O)[C@H](CC(=O)O)NC(=O)CNC(=O)[C@H](CC(C)C)NC(=O)[C@@H](N)CC(C)C)C(=O)NCC(=O)N[C@@H](CCCCN)C(=O)N[C@@H](CCC(=O)O)C(=O)N[C@@H](Cc1ccccc1)C(=O)N[C@@H](CCCCN)C(=O)N[C@@H](CCCNC(=N)N)C(=O)N[C@H](C(=O)N[C@H](C(=O)N[C@@H](CCC(N)=O)C(=O)N[C@@H](CCCNC(=N)N)C(=O)N[C@H](C(=O)N[C@@H](CCCCN)C(=O)N[C@@H](CC(=O)O)C(=O)N[C@@H](Cc1ccccc1)C(=O)N[C@@H](CC(C)C)C(=O)N[C@@H](CCCNC(=N)N)C(=O)N[C@@H](CC(N)=O)C(=O)N[C@@H](CC(C)C)C(=O)N[C@H](C(=O)N1CCC[C@H]1C(=O)N[C@@H](CCCNC(=N)N)C(=O)N[C@H](C(=O)N[C@@H](CCC(=O)O)C(=O)N[C@@H](CO)C(=O)O)[C@@H](C)O)C(C)C)[C@@H](C)CC)C(C)C)[C@@H](C)CC  remaining intact peptide (trypsin; LC-MS; 40 µM, 60 min, pH 7.5, 37 °C; relative to: 0 h): 4.29%
Clc1ccc(Cl)c(-c2ccccc2Cl)c1  mRNA level (NR1I2; agonist, refers to: CYP3A4; differentiated HepaRG; concentration not given, 24 h; relative to: maximum rifampicin induction): < 20%
CC(C)CC(=O)OC[C@H]1O[C@@](C#N)(c2ccc3c(N)ncnn23)[C@H](O)[C@@H]1O  recovery (ATP-dependent translocase ABCB1 (ABCB1, Homo sapiens, UniProt P08183); apical to basolateral transport; Caco-2; 9 µM, 2 h, added: zosuquidar 25 µM): 44.9%
Clc1ccc(-c2ccccc2Cl)cc1  mRNA level (NR1I2; agonist, refers to: CYP3A4; differentiated HepaRG; concentration not given, 24 h; relative to: maximum rifampicin induction): < 20%
CC(C)[C@H](C(=O)O[C@H](C#N)c1cccc(Oc2ccccc2)c1)c1ccc(Cl)cc1  enzyme contribution to CLint (human CYP2C19; IVIVE from expressed enzymes; human, liver, in vivo scaled; age-specific): 3.02%
O=C1c2ccccc2C(=O)C1c1ccccc1  activity (NR1I2; concentration not given): inactive
CCN(CC)CCCC(C)Nc1ccnc2cc(Cl)ccc12 (centres unmarked)  inhibition (SLC22A2; transport, inhibitor; transiently transfected cells; 100 µM, 10 (unit not given), added: metformin): 63.6%
C[C@H](NC(=O)[C@H](Cc1cnc[nH]1)NC(=O)[C@H](CO)NC(=O)[C@@H](N)CC(=O)O)C(=O)N[C@@H](CCCCN)C(=O)N[C@@H](CCCNC(=N)N)C(=O)N[C@@H](Cc1cnc[nH]1)C(=O)N[C@@H](Cc1cnc[nH]1)C(=O)NCC(=O)N[C@@H](Cc1ccc(O)cc1)C(=O)N[C@@H](CCCCN)C(=O)N[C@@H](CCCNC(=N)N)C(=O)N[C@@H](CCCCN)C(=O)N[C@@H](Cc1ccccc1)C(=O)N[C@@H](Cc1cnc[nH]1)C(=O)N[C@@H](CCC(=O)O)C(=O)N[C@@H](CCCCN)C(=O)N[C@@H](Cc1cnc[nH]1)C(=O)N[C@@H](Cc1cnc[nH]1)C(=O)N[C@@H](CO)C(=O)N[C@@H](Cc1cnc[nH]1)C(=O)N[C@@H](CCCNC(=N)N)C(=O)NCC(=O)N[C@@H](Cc1ccc(O)cc1)C(=O)O  intact peptide remaining (Secreted aspartic protease 9 (SAP9, Candida albicans, UniProt Q59SU1); proteolytic degradation, gel densitometry; 150 µg/mL, 2 h, pH 7.4, added: SAP9 3.1 µg/mL): 41.5%
CC1(C)[C@H](C=C(Cl)Cl)[C@H]1C(=O)OCc1cccc(Oc2ccccc2)c1  enzyme contribution to CLint (human CYP2C19; IVIVE from expressed enzymes; human, liver, in vivo scaled; 0.1 µM, age-specific): 0.32%
CCOC(=O)C1=C[C@@H](OC(CC)CC)[C@H](NC(C)=O)[C@@H](N)C1  inhibition (SLC22A2; transport, inhibitor; transiently transfected cells; 100 µM, 10 (unit not given), added: metformin): 12.7%
O=C(O)C(F)(F)C(F)(F)C(F)(F)C(F)(F)C(F)(F)C(F)(F)C(F)(F)F  CLint (Solute carrier family 22 member 11 (SLC22A11, Homo sapiens, UniProt Q9NSA0); uptake, substrate; HEK293 cells stably expressing SLC22A11, HBSS with HEPES; pH 6.8): 30.2 ± 11 µL/min/mg
CO[C@H]1C[C@H](O[C@H]2[C@H](C)O[C@@H](O[C@@H]3/C(C)=C/C[C@@H]4C[C@@H](C[C@]5(C=C[C@H](C)[C@@H](C6CCCCC6)O5)O4)OC(=O)[C@@H]4C=C(C)[C@@H](O)[C@H]5OC/C(=C\C=C\[C@@H]3C)[C@]54O)C[C@@H]2OC)O[C@@H](C)[C@@H]1O  activity (NR1I2; concentration not given): inactive
CC(C)=CC1C(C(=O)OC(C#N)c2cccc(Oc3ccccc3)c2)C1(C)C (centres unmarked)  enzyme contribution to CLint (human CYP2C19; IVIVE from expressed enzymes; human, liver, in vivo scaled; age-specific): 0.89%
COc1ccc2cc1Oc1ccc(cc1)C[C@H]1c3cc(c(OC)cc3CCN1C)Oc1c(OC)c(OC)cc3c1[C@H](C2)N(C)CC3  inhibition (SLC22A2; transport, inhibitor; 10 µM, added: Metformin): -5.9%
O=S(=O)(F)c1ccc(S(=O)(=O)Nc2cc(F)cc(C3CC3)c2)c2c1CCCC2  reaction half-life (RALB (Homo sapiens, UniProt P11234); covalent labelling; 4 °C, protein 2 µM): 10 h
CC[C@H](C)[C@H](NC(=O)[C@H](CC(C)C)NC(=O)[C@H](CCCNC(=N)N)NC(=O)[C@@H](N)CCCNC(=N)N)C(=O)N[C@@H](CCCNC(=N)N)C(=O)N[C@@H](CCCCN)C(=O)N[C@@H](CC(C)C)C(=O)N[C@@H](CCCCN)C(=O)NCC(=O)N[C@@H](CC(C)C)C(=O)N[C@@H](CCCCN)C(=O)N[C@@H](CCCCN)C(=O)N[C@@H](Cc1ccc(O)cc1)C(=O)N[C@@H](CC(C)C)C(=O)N[C@@H](Cc1ccc(O)cc1)C(=O)N[C@@H](Cc1ccccc1)C(=O)N[C@@H](CCCCN)C(=O)N[C@@H](CC(C)C)C(=O)N[C@@H](CCC(N)=O)C(=O)N[C@@H](CC(C)C)C(=O)N[C@@H](CC(C)C)C(=O)N[C@@H](CCCCN)C(=O)N[C@@H](CCCCN)C(N)=O  time to near-complete degradation (Chymotrypsinogen A (Bos taurus, UniProt P00766); substrate, HPLC; 150 µM, pH 7.4, 37 °C, added: chymotrypsin 0.1 µg/mL): 18 to 20 h
CCCCc1nc(Cl)c(CO)n1Cc1ccc(-c2ccccc2-c2nn[nH]n2)cc1  inhibition (SLC22A2; transport, inhibitor; transiently transfected cells; 100 µM, 10 (unit not given), added: metformin): -12.9%
O=C(Nc1c2c(cc3c1CCC3)CCC2)NS(=O)(=O)/C=C/c1nccs1  inhibition (human CYP3A4; human liver microsomes; 2 µM, pH 7.4, added: midazolam): < 0%

For quick reference, copied from above:
CCOC(=O)C1=C[C@@H](OC(CC)CC)[C@H](NC(C)=O)[C@@H](N)C1  inhibition (SLC22A2; transport, inhibitor; transiently transfected cells; 100 µM, 10 (unit not given), added: metformin): 12.7%
O=C(O)C(F)(F)C(F)(F)C(F)(F)C(F)(F)C(F)(F)C(F)(F)C(F)(F)F  CLint (Solute carrier family 22 member 11 (SLC22A11, Homo sapiens, UniProt Q9NSA0); uptake, substrate; HEK293 cells stably expressing SLC22A11, HBSS with HEPES; pH 6.8): 30.2 ± 11 µL/min/mg
CO[C@H]1C[C@H](O[C@H]2[C@H](C)O[C@@H](O[C@@H]3/C(C)=C/C[C@@H]4C[C@@H](C[C@]5(C=C[C@H](C)[C@@H](C6CCCCC6)O5)O4)OC(=O)[C@@H]4C=C(C)[C@@H](O)[C@H]5OC/C(=C\C=C\[C@@H]3C)[C@]54O)C[C@@H]2OC)O[C@@H](C)[C@@H]1O  activity (NR1I2; concentration not given): inactive
